Measured values of several laboratories.
Each line is one published result; not all experiments were run side by side. ≈ marks a conversion by molar mass, not a printed value.
Organism: Candida parapsilosis

O=C1/C(=C/c2cc(O)cc(O)c2)Oc2cc(O)cc(O)c21
MIC (broth microdilution; 24 and 48 h, RPMI-1640 medium): > 128 µg/mL

OC(Cn1cncn1)(Cn1cncn1)c1ccc(F)cc1F
MIC (broth microdilution; CGMCC 2.399, RPMI-1640; 48 h, 30 °C): 4 µM

CC(=O)ON=C1C=CC(=C(C#N)c2ccccc2)C=C1
MIC (broth dilution; ATCC 22099; 48 h, 37 °C): 16 µg/mL

C(=N\Nc1ccccc1)/c1ccc(-c2ccc(/C=N/Nc3ccccc3)cc2)cc1
selectivity index (ATCC 22019; relative to: mammalian CC50 over MIC): < 0.6

N#CC(=C1C=CC(=NOC(=O)OCc2ccccc2)C=C1)c1ccccc1
MFC (broth dilution; ATCC 22099; 48 h, 37 °C): 64 µg/mL (≈ 180 µM)

CCOC(=O)CON
MIC (CP1): 32 µg/mL

CC(=O)N1CCN(c2ccc(OCC3COC(Cn4ccnc4)(c4ccc(Cl)cc4Cl)O3)cc2)CC1 (stereo not drawn)
MIC (broth microdilution; CGMCC 2.399, RPMI-1640; 48 h, 30 °C): 4 µM

NOCC(=O)O
MIC (CP1): 1000 µg/mL

COc1ccc(N/N=C/c2ccc(-c3cccc(/C=N/Nc4ccc(OC)cc4)c3)cc2)cc1
selectivity index (ATCC 22019; relative to: mammalian CC50 over MIC): < 0.6
